Results of several laboratories.
Compare with care: the assays were run in different laboratories.

Compound	test	system	conditions	quantity	result
C[C@@H]1OC(=O)NN=C1c1ccc(-c2ccc(F)cc2)c(C(F)(F)F)c1	phase I trial, refers to: back pain all grades	human patients	20 mg loading then 1 mg daily	patients with adverse event	0%
CN[C@@H](C)C(=O)N[C@H]1CN(S(=O)(=O)c2cccc(S(=O)(=O)N3CC[C@H]4CC[C@@H](C(=O)NC(c5ccccc5)c5ccccc5)N4C(=O)[C@@H](NC(=O)[C@H](C)NC)C3)c2)CC[C@H]2CC[C@@H](C(=O)NC(c3ccccc3)c3ccccc3)N2C1=O	–	human, advanced solid tumours	7 mg	patients with treatment-related asthenia	0%
COc1ncnn2ccc(-c3cnc4nc(C)n(Cc5nnc([C@@H](C)F)o5)c4c3)c12	–	human	oral, dose not given, grade 5	patients with increased blood creatinine	0%
Cc1cn([C@H]2O[C@@H](CO[P@@](=O)(N[C@@H](C)C(=O)OC(C)C)Oc3ccccc3)[C@H](O)[C@H]2F)c(=O)[nH]c1=O	refers to: Nausea	human	50 mg	patients with TEAE	17%
COc1ccc(-c2c(-c3ccc(C#N)c(F)c3)nc(N3CCC(N)CC3)n(C)c2=O)cc1F	refers to: metastases to skin	human patients	oral, dose not given, dose escalation	patients with serious TEAE	2%
C=CC(=O)Nc1cc(Nc2nccc(Nc3cc(Cl)c(F)cc3C(C)(C)O)n2)c(OC)cc1N1CC[C@@H](N(C)C)C1	–	human patients	oral, 400 mg, treatment-emergent adverse events	patients with dizziness	20%
O=C1Nc2cc3[nH]nc(-c4ccncc4)c3cc2CN1Cc1ccccc1	CTCAE v4.03	human, relapsed or refractory advanced solid tumours	intravenous, 7.2 mg/kg	patients with QTc prolongation	0%
Cn1cncc1-c1c(F)cncc1NC(=O)c1c(N)nn2cc(F)cnc12	–	human patients	oral, 150 mg twice daily, 4 days on 3 days off	patients grade ≥3 Hyponatremia	0%
N[C@@H]1c2ccccc2OC12CCN(c1cnc3c(N4CCCc5ncccc54)n[nH]c3n1)CC2	refers to: dyspnea	human advanced or metastatic solid tumours	oral, dose not given, phase Ia	patients with serious adverse event	5.4%
CNC(=O)c1cc(Oc2ccc(NC(=O)Nc3cc(C(C)(C)C)nn3-c3ccc4ncccc4c3)c(F)c2)ccn1	–	human, trial	oral, 150 mg twice daily, starting dose	patients with related serious Death AE	3%
Cn1nc(NS(C)(=O)=O)c2c(Cl)ccc(-n3c([C@H](Cc4cc(F)cc(F)c4)NC(=O)Cn4nc(C(F)F)c5c4C(F)(F)[C@@H]4C[C@H]54)nc4nc(OCCC(F)(F)F)ccc4c3=O)c21	refers to: total cholesterol grade 2 increase	human	400 mg once daily, powder in bottle	patients with laboratory abnormality	0%
C[C@]1(O)C[C@@](N)(c2ccc(-c3nc4n(c3-c3ccccc3)COc3ccncc3-4)cc2)C1	–	human, advanced or metastatic solid tumours	24 mg intermittent, phase I dose escalation	patients with Rash TEAE	50%
CN(C)C(=O)c1cc2cnc(Nc3ccc(N4CCNCC4)cn3)nc2n1C1CCCC1	refers to: QT interval prolongation	human, HR+/HER2− advanced breast cancer	oral, dose not given, grade 4, CTCAE v4.03	patients with adverse event	0%

For quick reference, copied from above:
Compound	test	system	conditions	quantity	result
C[C@@H]1OC(=O)NN=C1c1ccc(-c2ccc(F)cc2)c(C(F)(F)F)c1	phase I trial, refers to: back pain all grades	human patients	20 mg loading then 1 mg daily	patients with adverse event	0%
